# Assay results of several laboratories.
# A part holds a random share of what one study measured. Substitutions count along the parent as printed.

# Series 1
# Target: RNA binding protein fox-1 homolog 2, RRM domain, GST-SBP tag (RBFOX2, Homo sapiens, UniProt O43251-10, residues 100-194)
# Method: RNA Bind-n-Seq
# Molecule type: RNA
# Matrix: in vitro
# Concentration: 365 nM
# Notes: natural RNA segment, single round, ends assumed
# Baseline: no-protein control
# Reading: higher = stronger binding
# Residues (chain): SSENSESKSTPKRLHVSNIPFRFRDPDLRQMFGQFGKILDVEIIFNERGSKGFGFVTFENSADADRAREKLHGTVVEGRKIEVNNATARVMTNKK
Strand,RBNS enrichment (R)
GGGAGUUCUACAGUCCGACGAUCAAAGUCCUCCUGGUUCCUGGGCCUGAGAAGGAGACCUAGGGCCAGAGGGCUGAGGGCCCUGGAGAGCCGGGGAGGGAGAAGAUGGGAAGUCCUGUCGUGUUGCCCACCAGUGGAAUUCUCGGGUGCCAA,0.269
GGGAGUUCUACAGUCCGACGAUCUCAGACUUGAGUCUGUUUCCCCUUGAUAGCAUCAUGGUUCUGGCCUUUUCCACAUUCAAUGGAAGCUUCAUGGUUGUUCUGACAGUGAAAGCAGUCCUGGAGAUCCCAUUUGGAAUUCUCGGGUGCCAA,0.276
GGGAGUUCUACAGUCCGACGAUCUUCAUCUGAGCAUAACUGUACUAAAUCCUUUUUCCAUAUCAGUAUAAUAAAGGAGUGAUGUGCAAUAGCUUCUUGUGUGAUGUGGAAGACCUUAUCUGAGGAAACUUUAGUGGAAUUCUCGGGUGCCAA,0.25
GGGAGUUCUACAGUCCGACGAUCCUGUGUUUAUCCACCGGUAGCGAUGCCCACCUUCCAGCCGGGAGAAAUAAAUGGUUUAUAAGAGACCCGGUUGCCUCAGCUUCUGCUUCCUUGGCUUGCGGAGGAAUUGGUGGAAUUCUCGGGUGCCAA,0.281
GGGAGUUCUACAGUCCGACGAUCAGGCCGCAUUUCUGACCUGAGCCCCGGGUCUCGGCUGUUUCGAGCCCCGCCUCGGACUUGCCUUCCCUCCCCUCCGGGUGAGCCUGUCUGGCGCCUUCCUCGCCCCGGGCUGGAAUUCUCGGGUGCCAA,0.734
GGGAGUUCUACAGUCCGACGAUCAAAGCUAACUAAUUUGCUAAUCACUGAUUUUGCAAAGCUUGUUGUGGAGAUGUGGCUGGACAGGUUUGCCAUCAGAGUGGAUAUACCGUUGUAUUAAAAACAAGAUAAAAUGGAAUUCUCGGGUGCCAA,0.431
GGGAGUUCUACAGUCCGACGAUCGAUCCUGCCCUCUCCAGCUGCUCCUUCAAAAGAUACAUCAAAAGAUAGAAACUCUGGGCUGGGCACAGUGGCUCACACACUUUGGGAGGCCAAGCGGGGGUGCAGAUCACUGGAAUUCUCGGGUGCCAA,0.346
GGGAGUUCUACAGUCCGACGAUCGAUGAUUCUCCCAAAAAGCAGAAAAAGAAAUGUCAGGUUAGAAGGACCCAAGUUCUAGGUGCACACUUUUGCAAGCUUCCUACAAGCCCAGACUGACUUACACUAACCUAUGGAAUUCUCGGGUGCCAA,0.871

# Series 2
# Target: ABI1, truncated, D143A, DHFR fusion (Arabidopsis thaliana)
# Method: DHFR PCA, deep sequencing
# Matrix: yeast
# Notes: methotrexate growth selection, single substitutions
# Together with: (+)-ABA 710 µM
# Baseline: wild-type fitted maximum
# Reading: higher = stronger binding
# Starting sequence: PYL1, truncated, DHFR fusion (Arabidopsis thaliana); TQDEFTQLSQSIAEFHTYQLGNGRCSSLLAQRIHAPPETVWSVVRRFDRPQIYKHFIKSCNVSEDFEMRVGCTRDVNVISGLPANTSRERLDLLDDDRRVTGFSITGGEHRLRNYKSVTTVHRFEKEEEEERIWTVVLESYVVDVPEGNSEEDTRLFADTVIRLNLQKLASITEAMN
Change,relative binding score
N177V,102%
N114P,3.83%
R88M,107%
R32Y,95.1%
Q51S,91.5%
K58Q,99.7%
N77E,104%
L112P,15.5%
N177D,102%
S104V,80.8%
G23M,99.5%
R111I,55.4%
R98A,106%
E139M,93.5%

# Series 3
# Target: Phosphate system positive regulatory protein PHO4, full length, GST-tagged (PHO4, Saccharomyces cerevisiae, UniProt P07270, residues 1-312)
# Method: competition protein-binding microarray
# Molecule type: double-stranded DNA, one strand shown
# Matrix: in vitro
# Concentration: 2 µM
# Notes: whole 60-bp probe, lowest competitor level
# Together with: Cbf1 competitor, 0.05 µM
# Reading: higher = stronger binding
# Target sequence (chain): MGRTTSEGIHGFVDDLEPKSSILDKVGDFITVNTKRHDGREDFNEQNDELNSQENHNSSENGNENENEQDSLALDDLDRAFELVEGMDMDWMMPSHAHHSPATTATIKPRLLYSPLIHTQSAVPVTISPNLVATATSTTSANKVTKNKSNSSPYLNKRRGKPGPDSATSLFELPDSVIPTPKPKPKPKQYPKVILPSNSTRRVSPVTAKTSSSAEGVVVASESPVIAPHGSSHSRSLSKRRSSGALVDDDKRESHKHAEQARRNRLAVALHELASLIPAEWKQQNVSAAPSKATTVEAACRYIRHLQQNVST
Strand,fluorescence intensity
TACGACCAGATGAATCACATGTGTGGATGTTAACAAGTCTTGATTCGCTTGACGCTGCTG,9910 a.u.
ATTTTTACTTTAGTGCGCGTGGGTAGCCGAGCCTCGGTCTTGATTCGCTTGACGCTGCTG,11700 a.u.
ACCCACATCACCCCATACATGACAATCTTCTTGCAAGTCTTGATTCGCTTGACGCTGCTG,6770 a.u.
CTTCTGTAAATTTGTCACTTGACTTGACGCGCCCCGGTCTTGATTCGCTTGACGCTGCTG,3950 a.u.
TTCCTTGGCGCTATTTTCGTGCATCCCGTAATTGCCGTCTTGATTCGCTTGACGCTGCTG,4420 a.u.
AAGTACAAGTGAGGGATCGTGATTGTAGAGCACTCTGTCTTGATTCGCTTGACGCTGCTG,5860 a.u.
CCCAAACTCTCAAAGCACGATCTAGAGAACCAGCAGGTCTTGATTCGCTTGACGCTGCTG,8460 a.u.
GCTTGTTCATACAAGCTCGTGTAGCTAAATACGTACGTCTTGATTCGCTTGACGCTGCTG,8640 a.u.
CATACCCAACCTTGAGAAGTGGGTGAAGATATTTGTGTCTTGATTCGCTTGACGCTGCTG,3910 a.u.
CGGGGTTAAGTTTGATGAGTGGGTGGCTTGCAGCAGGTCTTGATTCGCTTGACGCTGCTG,5340 a.u.
TCGAACGAAAAAAGAAACGTGATAGCGATGTAAGTAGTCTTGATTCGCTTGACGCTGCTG,12000 a.u.
TATATACATTGCCATCACGGGACTTAGCGTTAGTTCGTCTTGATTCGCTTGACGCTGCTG,5780 a.u.
AAATTACTAAGTTGCTGCGTGGGTGACGCCGTATGAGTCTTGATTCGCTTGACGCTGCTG,9300 a.u.
CTAACGAAGGTTTGTCACGCAACTTACAAGCCAAGTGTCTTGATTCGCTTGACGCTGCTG,5400 a.u.
CTAACGAAGGTTTGTCACCTGACTTACAAGCCAAGTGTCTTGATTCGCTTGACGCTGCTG,3560 a.u.
CTTTCCCGATCTTTTCACGTGATTTTAGCACATTTGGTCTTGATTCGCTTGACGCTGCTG,11700 a.u.
CGTCCTAGTGATTGCAAAGTGGGTGCCATGAGGAAGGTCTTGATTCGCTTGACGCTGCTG,6850 a.u.
TTCTTTGGTCTTGGCCAGAGGTCCCAGAGTCGAAAAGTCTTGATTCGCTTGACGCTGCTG,2000 a.u.
AACACCTTCCGACGGCGCGTGTTGGCAAAGCTGGGTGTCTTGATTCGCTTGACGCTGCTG,8360 a.u.

# Series 4
# Target: Hepatocyte nuclear factor 3-alpha (Foxa1, Mus musculus, UniProt P35582, residues 1-468, full length assumed)
# Method: EMSA with sequencing
# Molecule type: double-stranded DNA, one strand shown
# Matrix: in vitro
# Concentration: 10 and 20 nM
# Notes: whole designed probe, mean of two concentrations, ends assumed
# Baseline: negative control set to 0
# Reading: higher = stronger binding
# Residues (chain): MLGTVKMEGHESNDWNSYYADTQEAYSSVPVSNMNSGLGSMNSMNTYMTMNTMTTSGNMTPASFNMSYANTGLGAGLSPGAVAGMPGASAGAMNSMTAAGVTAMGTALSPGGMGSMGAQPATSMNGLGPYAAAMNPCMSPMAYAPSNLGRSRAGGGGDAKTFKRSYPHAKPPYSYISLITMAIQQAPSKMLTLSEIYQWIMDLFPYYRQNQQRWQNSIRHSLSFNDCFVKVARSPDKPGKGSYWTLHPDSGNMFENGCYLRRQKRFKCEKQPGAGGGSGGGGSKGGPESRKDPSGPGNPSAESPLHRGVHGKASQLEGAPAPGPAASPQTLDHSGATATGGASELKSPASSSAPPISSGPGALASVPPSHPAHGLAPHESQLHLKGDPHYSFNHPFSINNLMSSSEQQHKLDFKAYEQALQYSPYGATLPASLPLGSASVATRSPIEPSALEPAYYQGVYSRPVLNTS
Strand,normalised bound fraction [ratio]
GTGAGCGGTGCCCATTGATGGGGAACCTGTAGCCTTTGCAAATAACCTTTTTGAACAAAAACGGCAAAGGCTCTTTCCAAACCCGATCAAAGAGGTATGCAAGACTCTCAGCCACTAAATAAACATTGATGCCTGATGGCAGTAATATGGCTATTTATATTCAGAGCCTGATTTAACCAGTGGCATTCCTGTAATAAGATAATAAGCATGAGCTGTTTATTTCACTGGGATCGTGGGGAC,0.498
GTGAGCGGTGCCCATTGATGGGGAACGACGGGCACCAGGAGCCCTGTGTCCTCTGCCTTGCAGGTGTTTAGGGAACATTGTTCAGACTGGAAGGAAGAGCGAGCTCAAAATGCCCTTTCTGTTTACTCTGCTGGGAAGGATATGAAGCCAAACAGAACCAGCTACGGGAGTCTTTCGACCGCAAGACAAAAGGTCCTTTGCCCCCACTACCTGCAACTTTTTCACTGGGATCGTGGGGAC,0.266
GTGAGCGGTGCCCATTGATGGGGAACCCTGTTCTGTAAAAGTGTTTGGATTGAGAGAACACGTACAAAATGACAGGATAATAGCAGGTAGATAATATTCATCTTTTTCTCCCAGGTTAATGTAATCTGGGACCTGATTTTACAAGATTTTATAGGCCATGTTTTACATACGTTGATTTTATCTTAATATGAATAAAACTTAACATATGTGGAGACATTATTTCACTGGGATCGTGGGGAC,-0.021
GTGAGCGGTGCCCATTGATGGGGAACATCTTCCCCCTCTTCCTTGCCCCACCAGCTCACCTTCCCGGGTTATTTGCAGATAGGAAAATAAATAAAGCCGGATGAATCATGCCCTCTTCACGCGCATACTGCTGTTTGCTCTGGATCTAACATGGTCCTTTGGCGACGCCAGGCTCCGGGAGAGCAAAGCACCGTGTCAGGGCCATGATCCGGGGTGGCCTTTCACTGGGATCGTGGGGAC,0.361
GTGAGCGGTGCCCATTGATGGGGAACTAATTTGGCTTTCCTTGTAAAACTCTTTTTAATTTTTAATTTTAAATGCCATGTAATACACTTGTTCTCTCTTTGAACTGAGATTTATCAATGTAAACAAGAAGAACAATTCAATTCATTAAATTAAAGAGGATATTTGTTCCAGGCTGAAAAATTAAGTGGTTTACTACACATAAATATAAAATTTCCTTCATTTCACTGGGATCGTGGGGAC,0.393

# A few entries again (series 2):
Change,relative binding score
R88M,107%
R32Y,95.1%
Q51S,91.5%
K58Q,99.7%
